Published values of several laboratories.
Each line is one published result; not all experiments were run side by side.
Target: Cytochrome P450 1A2 (CYP1A2, Homo sapiens, UniProt P05177)
UniProt P05177, sequence (whole entry, looked up): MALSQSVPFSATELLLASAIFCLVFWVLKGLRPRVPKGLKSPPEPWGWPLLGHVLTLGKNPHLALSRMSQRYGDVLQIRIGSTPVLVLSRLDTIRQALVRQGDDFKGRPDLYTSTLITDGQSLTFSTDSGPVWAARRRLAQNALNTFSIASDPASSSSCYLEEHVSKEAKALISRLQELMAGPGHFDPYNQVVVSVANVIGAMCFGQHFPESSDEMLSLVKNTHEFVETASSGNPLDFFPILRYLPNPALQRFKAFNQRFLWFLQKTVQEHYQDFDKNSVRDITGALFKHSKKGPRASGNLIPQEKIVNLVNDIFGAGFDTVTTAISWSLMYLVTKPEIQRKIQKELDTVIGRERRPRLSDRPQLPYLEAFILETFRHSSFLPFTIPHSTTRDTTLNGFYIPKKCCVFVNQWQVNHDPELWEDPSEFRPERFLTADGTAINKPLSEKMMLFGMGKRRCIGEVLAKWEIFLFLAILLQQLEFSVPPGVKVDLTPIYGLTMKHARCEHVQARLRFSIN
Action: inhibitor

| Structure (SMILES) | test | system | conditions | quantity | value |
| --- | --- | --- | --- | --- | --- |
| CNC(=O)O/N=C/C(C)(C)S(C)(=O)=O |  | human liver microsomes | 2 µM, pH 7.4, with: phenacetin | inhibition | 1.41% |
| O=C(Cc1ccccc1Nc1c(Cl)cccc1Cl)Oc1ccc(-c2cc(=S)ss2)cc1 | enzyme activity, fluorescence |  |  | IC50 | 1.75 µM |
| CC[C@@H]1CN2CC[C@@]3(O)C(=Nc4cccc(OC)c43)[C@@H]2C[C@@H]1/C(=C\OC)C(=O)OC | enzyme activity | human, liver microsomes |  | IC50 | > 45 µM |
| C#CCOc1ccccc1-c1cc(=O)c2ccccc2o1 | enzyme activity |  |  | IC50 | 1.29 µM |
| CC[C@H]1CN2CCc3c([nH]c4cccc(OC)c34)[C@@H]2C[C@@H]1/C(=C\OC)C(=O)OC | enzyme activity | human, liver microsomes |  | IC50 | > 45 µM |
| O=S(=O)(O)C(F)(F)C(F)(F)C(F)(F)C(F)(F)C(F)(F)C(F)(F)C(F)(F)C(F)(F)F | enzyme activity, fluorescence |  |  | IC50 | 25.7 µM |
| O=C1Cc2cc(CCN3CCN(c4nsc5ccccc45)CC3)c(Cl)cc2N1 |  | human liver microsomes | 10 µM, pH 7.4, with: phenacetin | inhibition | < 0% |
| O=c1cc(-c2ccccc2O)oc2ccccc12 | enzyme activity |  |  | IC50 | 9.39 µM |
| CSc1nc2cc(Cl)c(Oc3cccc(Cl)c3Cl)cc2[nH]1 |  | human liver microsomes | 2 µM, pH 7.4, with: phenacetin | inhibition | 68.2% |
| O=c1cc(-c2ccc(O)cc2)oc2ccccc12 | enzyme activity |  |  | IC50 | 6.52 µM |
| CNC(=O)Oc1cc(C)c(SC)c(C)c1 |  | human liver microsomes | 10 µM, pH 7.4, with: phenacetin | inhibition | 88.9% |
| O=S(=O)(O)C(F)(F)C(F)(F)C(F)(F)C(F)(F)F | enzyme activity | Supersomes | with: 7-methoxyresorufin substrate | IC50 | > 100 µM |
